# Experimental data pooled from the literature.
# Each numbered part is a random draw from the data of one study; scales do not carry over between parts.
# Chain of UniProt O00141 (whole entry, looked up): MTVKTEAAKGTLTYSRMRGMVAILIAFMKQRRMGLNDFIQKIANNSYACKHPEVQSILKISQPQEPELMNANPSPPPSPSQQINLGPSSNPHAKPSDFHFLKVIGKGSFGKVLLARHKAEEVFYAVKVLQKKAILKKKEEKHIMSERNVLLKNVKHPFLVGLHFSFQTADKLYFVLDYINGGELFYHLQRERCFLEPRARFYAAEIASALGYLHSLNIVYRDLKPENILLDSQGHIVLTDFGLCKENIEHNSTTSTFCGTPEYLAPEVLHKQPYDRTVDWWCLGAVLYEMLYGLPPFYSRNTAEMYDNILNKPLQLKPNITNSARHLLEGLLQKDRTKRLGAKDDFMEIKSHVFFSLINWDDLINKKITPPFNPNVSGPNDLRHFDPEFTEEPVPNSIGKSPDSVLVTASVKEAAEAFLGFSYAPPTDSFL
# Chain of UniProt Q15418 (whole entry, looked up): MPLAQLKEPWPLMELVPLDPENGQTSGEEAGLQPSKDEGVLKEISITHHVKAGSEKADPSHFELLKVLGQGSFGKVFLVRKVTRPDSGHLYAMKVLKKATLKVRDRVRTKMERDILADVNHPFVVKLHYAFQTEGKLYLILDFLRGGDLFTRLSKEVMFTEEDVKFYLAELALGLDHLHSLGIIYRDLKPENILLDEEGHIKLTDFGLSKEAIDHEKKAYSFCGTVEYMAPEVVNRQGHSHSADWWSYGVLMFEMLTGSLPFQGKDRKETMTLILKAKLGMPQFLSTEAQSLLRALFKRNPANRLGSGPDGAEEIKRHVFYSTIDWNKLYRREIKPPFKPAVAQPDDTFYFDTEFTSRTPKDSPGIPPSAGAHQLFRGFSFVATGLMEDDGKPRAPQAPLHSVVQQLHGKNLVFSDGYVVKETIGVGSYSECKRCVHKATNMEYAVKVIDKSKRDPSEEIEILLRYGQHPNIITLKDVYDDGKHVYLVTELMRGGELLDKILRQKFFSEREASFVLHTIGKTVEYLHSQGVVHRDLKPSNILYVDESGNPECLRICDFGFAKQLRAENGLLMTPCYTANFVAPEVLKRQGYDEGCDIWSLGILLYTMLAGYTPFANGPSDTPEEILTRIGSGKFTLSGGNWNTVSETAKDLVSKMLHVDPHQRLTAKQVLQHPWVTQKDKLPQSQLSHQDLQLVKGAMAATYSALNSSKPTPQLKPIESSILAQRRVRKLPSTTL
# Chain of UniProt Q13873 (whole entry, looked up): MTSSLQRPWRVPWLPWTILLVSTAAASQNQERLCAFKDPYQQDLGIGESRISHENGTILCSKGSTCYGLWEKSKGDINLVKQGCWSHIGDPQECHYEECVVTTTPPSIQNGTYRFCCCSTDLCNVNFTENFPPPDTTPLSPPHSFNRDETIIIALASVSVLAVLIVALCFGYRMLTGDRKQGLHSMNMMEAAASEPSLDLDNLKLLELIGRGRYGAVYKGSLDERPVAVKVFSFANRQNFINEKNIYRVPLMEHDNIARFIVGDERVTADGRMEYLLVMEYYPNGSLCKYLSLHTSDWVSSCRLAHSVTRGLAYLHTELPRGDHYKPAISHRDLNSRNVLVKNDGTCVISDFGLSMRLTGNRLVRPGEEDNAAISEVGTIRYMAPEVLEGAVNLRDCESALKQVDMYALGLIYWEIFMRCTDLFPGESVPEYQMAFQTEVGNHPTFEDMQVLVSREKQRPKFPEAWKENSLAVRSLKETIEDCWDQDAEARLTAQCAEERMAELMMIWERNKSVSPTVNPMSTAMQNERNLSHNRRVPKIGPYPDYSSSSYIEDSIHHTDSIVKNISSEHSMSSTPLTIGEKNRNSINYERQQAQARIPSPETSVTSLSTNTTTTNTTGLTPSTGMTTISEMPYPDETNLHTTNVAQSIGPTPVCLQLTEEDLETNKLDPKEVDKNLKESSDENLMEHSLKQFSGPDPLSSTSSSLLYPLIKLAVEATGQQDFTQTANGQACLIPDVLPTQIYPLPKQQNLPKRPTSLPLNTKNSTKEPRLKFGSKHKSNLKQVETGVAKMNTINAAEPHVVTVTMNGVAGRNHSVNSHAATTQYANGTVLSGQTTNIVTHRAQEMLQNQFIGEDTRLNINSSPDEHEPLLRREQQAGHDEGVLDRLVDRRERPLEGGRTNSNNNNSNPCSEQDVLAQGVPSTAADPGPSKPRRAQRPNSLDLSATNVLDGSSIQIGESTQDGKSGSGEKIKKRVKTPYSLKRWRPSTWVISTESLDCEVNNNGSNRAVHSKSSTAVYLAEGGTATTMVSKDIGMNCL
# Chain of UniProt Q02779 (whole entry, looked up): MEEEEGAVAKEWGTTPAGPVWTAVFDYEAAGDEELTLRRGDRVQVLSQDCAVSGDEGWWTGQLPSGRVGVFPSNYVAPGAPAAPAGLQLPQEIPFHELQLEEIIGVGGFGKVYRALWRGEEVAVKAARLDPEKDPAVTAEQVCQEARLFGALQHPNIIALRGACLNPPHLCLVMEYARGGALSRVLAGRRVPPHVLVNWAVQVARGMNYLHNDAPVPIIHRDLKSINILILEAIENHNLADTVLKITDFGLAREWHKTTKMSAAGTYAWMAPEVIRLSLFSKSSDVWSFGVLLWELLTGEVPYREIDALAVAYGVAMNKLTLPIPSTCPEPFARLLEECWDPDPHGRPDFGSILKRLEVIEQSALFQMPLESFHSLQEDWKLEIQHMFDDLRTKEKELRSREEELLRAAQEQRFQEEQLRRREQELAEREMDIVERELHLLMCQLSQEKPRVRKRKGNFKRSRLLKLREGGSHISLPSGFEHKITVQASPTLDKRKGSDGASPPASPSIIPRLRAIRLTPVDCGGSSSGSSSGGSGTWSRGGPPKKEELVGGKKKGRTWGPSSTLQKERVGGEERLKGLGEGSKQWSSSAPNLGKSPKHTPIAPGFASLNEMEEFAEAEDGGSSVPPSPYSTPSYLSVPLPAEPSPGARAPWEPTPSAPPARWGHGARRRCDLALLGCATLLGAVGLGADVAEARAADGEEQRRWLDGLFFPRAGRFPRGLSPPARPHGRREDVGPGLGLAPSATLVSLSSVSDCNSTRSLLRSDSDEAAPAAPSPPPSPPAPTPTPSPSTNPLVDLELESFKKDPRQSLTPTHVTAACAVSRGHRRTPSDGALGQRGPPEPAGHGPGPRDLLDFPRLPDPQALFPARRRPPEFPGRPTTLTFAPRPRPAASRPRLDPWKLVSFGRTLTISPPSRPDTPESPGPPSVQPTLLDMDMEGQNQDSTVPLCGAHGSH
# Chain of UniProt P78362 (whole entry, looked up): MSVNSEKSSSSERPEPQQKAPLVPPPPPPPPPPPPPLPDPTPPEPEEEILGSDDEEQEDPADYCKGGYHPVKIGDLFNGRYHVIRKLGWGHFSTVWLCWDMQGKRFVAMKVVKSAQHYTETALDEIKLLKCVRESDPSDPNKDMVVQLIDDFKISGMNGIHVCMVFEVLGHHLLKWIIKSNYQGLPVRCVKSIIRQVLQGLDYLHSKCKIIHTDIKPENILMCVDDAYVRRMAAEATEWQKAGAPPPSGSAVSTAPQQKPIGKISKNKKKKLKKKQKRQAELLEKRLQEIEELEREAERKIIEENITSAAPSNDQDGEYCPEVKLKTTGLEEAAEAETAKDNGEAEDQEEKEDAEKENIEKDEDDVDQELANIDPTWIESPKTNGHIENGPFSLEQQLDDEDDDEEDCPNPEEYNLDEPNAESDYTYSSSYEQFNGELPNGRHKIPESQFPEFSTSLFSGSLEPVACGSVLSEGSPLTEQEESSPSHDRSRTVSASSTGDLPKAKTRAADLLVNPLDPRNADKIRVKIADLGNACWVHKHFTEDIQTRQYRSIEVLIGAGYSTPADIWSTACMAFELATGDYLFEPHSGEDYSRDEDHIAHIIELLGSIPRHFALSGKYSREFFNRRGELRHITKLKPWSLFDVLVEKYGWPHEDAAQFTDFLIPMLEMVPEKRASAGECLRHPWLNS
# Chain of UniProt Q99640 (whole entry, looked up): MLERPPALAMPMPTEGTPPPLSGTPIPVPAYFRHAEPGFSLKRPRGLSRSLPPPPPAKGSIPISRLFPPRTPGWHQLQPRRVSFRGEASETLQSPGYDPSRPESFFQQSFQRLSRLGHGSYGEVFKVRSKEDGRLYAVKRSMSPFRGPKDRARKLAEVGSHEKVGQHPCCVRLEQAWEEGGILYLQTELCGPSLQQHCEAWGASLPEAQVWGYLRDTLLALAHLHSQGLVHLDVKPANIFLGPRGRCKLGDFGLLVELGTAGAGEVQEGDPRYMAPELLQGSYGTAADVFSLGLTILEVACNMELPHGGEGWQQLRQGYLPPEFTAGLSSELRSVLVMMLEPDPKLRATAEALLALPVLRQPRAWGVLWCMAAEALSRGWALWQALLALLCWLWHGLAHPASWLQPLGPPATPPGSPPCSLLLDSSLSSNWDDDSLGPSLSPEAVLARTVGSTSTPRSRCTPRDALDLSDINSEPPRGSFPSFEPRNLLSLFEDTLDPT
# Chain of UniProt Q13555 (whole entry, looked up): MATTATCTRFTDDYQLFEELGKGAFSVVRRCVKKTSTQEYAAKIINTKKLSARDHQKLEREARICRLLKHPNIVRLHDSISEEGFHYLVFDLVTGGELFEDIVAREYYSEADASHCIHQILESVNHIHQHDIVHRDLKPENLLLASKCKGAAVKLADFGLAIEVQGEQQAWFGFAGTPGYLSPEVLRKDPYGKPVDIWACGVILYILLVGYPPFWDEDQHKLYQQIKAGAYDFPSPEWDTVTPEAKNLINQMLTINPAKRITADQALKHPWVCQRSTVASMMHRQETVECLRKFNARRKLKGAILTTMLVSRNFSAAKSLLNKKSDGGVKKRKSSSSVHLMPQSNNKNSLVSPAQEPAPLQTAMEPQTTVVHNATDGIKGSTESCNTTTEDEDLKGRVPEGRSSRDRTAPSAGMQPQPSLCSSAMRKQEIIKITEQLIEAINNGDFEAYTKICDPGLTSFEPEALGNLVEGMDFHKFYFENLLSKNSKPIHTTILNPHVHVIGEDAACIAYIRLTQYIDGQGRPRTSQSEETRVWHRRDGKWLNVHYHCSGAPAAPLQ

# Study 1
# Cell line: mouse MPNST tumor cells
# Technique: high-content nuclear imaging
# Item: cell number
# Tested at: 10 µM
# Time: 12 h
# Notes: mean of 2 replicates
# Baseline: plate mean
# Direction: higher = more cells
Structure (SMILES),nuclei count
C[N+]1(C)CCC(=C(c2ccccc2)c2ccccc2)CC1,0.692 z-score
COc1nccnc1NS(=O)(=O)c1cccc(Cl)c1Cl,0.357 z-score
CN(C)CCOC(=O)COc1ccc(Cl)cc1,1.64 z-score
CCCN1CCC[C@@H](c2cccc(S(C)(=O)=O)c2)C1,0.878 z-score
NC(=O)c1cc[n+](CC2=C(C(=O)[O-])N3C(=O)[C@@H](NC(=O)[C@@H](c4ccccc4)S(=O)(=O)O)[C@H]3SC2)cc1,0.209 z-score
c1ccc(CNc2ncnc3nc[nH]c23)cc1,-0.2 z-score

# Study 2
# SMILES: COc1cc(C(=O)N2CCC(N3CCN(C)CC3)CC2)ccc1Nc1ncc2c(n1)N(C)c1ccccc1C(=O)N2C
# Mode: inhibitor
# Tested at: 5 µM
target,test,test system,setting,how to read,log2 fold change
"TGF-beta receptor type-1 (TGFBR1, Homo sapiens, UniProt P36897, D400G)",kinase activity,,cell-based kinome screen,baseline: vehicle,0.037
kinase–CDC37 interaction,kinase–CDC37 binding,human cells,oncogenic ETV6-SYK fusion,baseline: vehicle,-0.03
"Cyclin-dependent kinase 18 (CDK18, Homo sapiens, UniProt Q07002)",,human cells,,baseline: vehicle,0.316
"Cyclin-dependent kinase 15 (CDK15, Homo sapiens, UniProt Q96Q40)",,human cells,cell-based kinome screen,baseline: vehicle,-0.057
"Calcium/calmodulin-dependent protein kinase type II subunit gamma (CAMK2G, Homo sapiens, UniProt Q13555)",cell-based kinome profiling,human cells,,baseline: vehicle control,-0.636
human SPTBN1-FLT3 fusion,kinase–CDC37 interaction,,,baseline: vehicle,0.324
"Serine/threonine-protein kinase Sgk1, with CDC37 (SGK1, Homo sapiens, UniProt O00141)",kinase activity,,cell-based kinome screen,baseline: vehicle,-0.061

# Study 3
# Compound: CS(=O)(=O)N1CCCC(NC(=O)[C@H](CCC2CCCCC2)NC(=O)c2ccc(CNc3ncnc4c3nnn4-c3ccccc3)cc2)C1 (stereo partly drawn)
target,test,setting,remaining binding [%]
"SRSF protein kinase 2 (SRPK2, Homo sapiens, UniProt P78362)","binding, competition with immobilised ligand",1 µM,34
"Epidermal growth factor receptor (EGFR, Homo sapiens, UniProt P00533, del752-759)","cell-free assay, competition with immobilised ligand",0.1 µM,100
"Ribosomal protein S6 kinase alpha-1, N-terminal kinase domain (RPS6KA1, Homo sapiens, UniProt Q15418)","cell-free assay, competition with immobilised ligand",0.1 µM,100
"Phosphatidylinositol 4-phosphate 3-kinase C2 domain-containing subunit beta (PIK3C2B, Homo sapiens, UniProt O00750)","cell-free assay, competition with immobilised ligand",0.1 µM,95
"Protein-tyrosine kinase 2-beta (PTK2B, Homo sapiens, UniProt Q14289)","cell-free assay, competition with immobilised ligand",0.1 µM,94
"Serine/threonine-protein kinase SBK1 (SBK1, Homo sapiens, UniProt Q52WX2)","cell-free assay, competition with immobilised ligand",0.1 µM,82
"MAP/microtubule affinity-regulating kinase 3 (MARK3, Homo sapiens, UniProt P27448)","cell-free assay, competition with immobilised ligand",0.1 µM,100
"Tyrosine-protein kinase Fyn (FYN, Homo sapiens, UniProt P06241)","cell-free assay, competition with immobilised ligand",0.1 µM,56
"Mitogen-activated protein kinase kinase kinase kinase 5 (MAP4K5, Homo sapiens, UniProt Q9Y4K4)","cell-free assay, competition with immobilised ligand",0.1 µM,76
"Ephrin type-B receptor 2 (EPHB2, Homo sapiens, UniProt P29323)","cell-free assay, competition with immobilised ligand",0.1 µM,87
"Mitogen-activated protein kinase kinase kinase 20 (MAP3K20, Homo sapiens, UniProt Q9NYL2)","cell-free assay, competition with immobilised ligand",0.1 µM,89
"Mitogen-activated protein kinase kinase kinase 10 (MAP3K10, Homo sapiens, UniProt Q02779)","cell-free assay, competition with immobilised ligand",0.1 µM,73
"Receptor tyrosine-protein kinase erbB-4 (ERBB4, Homo sapiens, UniProt Q15303)","cell-free assay, competition with immobilised ligand",0.1 µM,61
"Serine/threonine-protein kinase Sgk1 (SGK1, Homo sapiens, UniProt O00141)","cell-free assay, competition with immobilised ligand",0.1 µM,100
"Bone morphogenetic protein receptor type-2 (BMPR2, Homo sapiens, UniProt Q13873)","cell-free assay, competition with immobilised ligand",0.1 µM,100
"Serine/threonine-protein kinase D1 (PRKD1, Homo sapiens, UniProt Q15139)","cell-free assay, competition with immobilised ligand",0.1 µM,91
"Myosin-IIIa (MYO3A, Homo sapiens, UniProt Q8NEV4)","binding, competition with immobilised ligand",0.1 µM,97
"Atypical kinase COQ8B, mitochondrial (COQ8B, Homo sapiens, UniProt Q96D53)","cell-free assay, competition with immobilised ligand",0.1 µM,100
"Phosphatidylinositol 4,5-bisphosphate 3-kinase catalytic subunit alpha isoform (PIK3CA, Homo sapiens, UniProt P42336, Q546K)","cell-free assay, competition with immobilised ligand",0.1 µM,60
"Cyclin-dependent kinase 19 (CDK19, Homo sapiens, UniProt Q9BWU1)",competition binding,0.1 µM,90
"RAC-beta serine/threonine-protein kinase (AKT2, Homo sapiens, UniProt P31751)","cell-free assay, competition with immobilised ligand",0.1 µM,100

# Study 4
# Species: mouse
# Matrix: microsomes or S9
# Tested at: 2 µM
# Time: 0.5 h
SMILES,remaining compound [%]
Cc1cc(C(=O)Nc2cnn(Cc3ccc(Cl)cc3Cl)c2)c2c(C)nn(C)c2n1,42.6
CC(C)(C)C(=O)c1sc2c(c1N)c(=O)[nH]c(=O)n2C1CCCCC1,41.8
Cc1cc(=O)c(C(=O)Nc2nc3ccccc3nc2N2CCCC2)nn1-c1ccc(Cl)cc1,51
COC(=O)c1ccc2c(=O)n(-c3ccccc3)c(N(Cc3ccco3)C3CCCC3)nc2c1,4.61
CNC(=O)C1CCCC1NC(=O)N1CCOC(C)(c2cnn(C)c2)C1 (stereo not drawn),87.8
COc1cc(=O)n(-c2ccc(F)cc2)nc1C(=O)Nc1ccc(-c2nc3ccc(C)cc3s2)cc1,49.6
CCC(=O)N1CCC(N(C(=O)COC)C2CCOCC2)CC1,91.5

# Other studies, line by line
SMILES,target,test,setting,how to read,endpoint,result
CC(C)C[C@@H](C=O)NC(=O)[C@H](CC(C)C)NC(=O)[C@H](CC(C)C)NC(=O)OCc1ccccc1,"Membrane-associated tyrosine- and threonine-specific cdc2-inhibitory kinase (PKMYT1, Homo sapiens, UniProt Q99640)",immunoblotting,"0.1 µM, unit not given",baseline: untreated,protein level,1.25
